Measured values collected from several papers.
Several values in a cell are separate wells, animals, samples, runs or records. ± marks the error that the study gave.

SMILES | target | assay | system | setting | scale | measurement | result
COC(=O)[C@@]1(O)C[C@H]2O[C@]1(C)n1c3ccccc3c3c4c(c5c6ccccc6n2c5c31)C(=O)NC4 | MAPK3 (Homo sapiens, UniProt P27361) | ADP-Glo | – | 631 nM, added: MBP substrate | – | kinase activity | 10.4% and 23.2% and 19.9%
CN1CCN(c2cc(-c3ccncc3)c(-c3ccc4ccccc4c3)nn2)CC1 | ADRB1 (Homo sapiens, UniProt P08588) | agonist, FLIPR | – | 12.5 µM | – | activation | -0.9%
C=C(CN(C(=O)c1c(C(F)F)nn(C)c1F)C1CC1)c1ccc(Cl)cc1Cl | SDHD/SDHC/SDHB (Sus scrofa, UniProt A5GZW8+D0VWV4+Q007T0) | enzyme activity, inhibitor, DCIP reduction | pig | 0.2 µM, added: DCIP 20 µM | – | reaction velocity | 0.0054 µM/s and 0.00538 µM/s and 0.00514 µM/s
Clc1cc2c(cc1Cl)Oc1cc(Cl)c(Cl)cc1O2 | Uncharacterized protein (Takifugu rubripes, UniProt Q4JHL4) | reporter gene, agonist, dual-luciferase | COS-7 | 24 h | – | EC20 | 250 ± 160 pM
CO/N=C(\C(=O)N[C@@H]1C(=O)N2C(C(=O)O)=C(CSc3nc(=O)c(=O)[nH]n3C)CS[C@H]12)c1csc(N)n1 | Penicillin-binding protein 2a (pbp2a, Streptococcus pneumoniae, UniProt Q8DNB6) | inhibitor | – | – | – | kinact/KI | 610 ± 280 M⁻¹ s⁻¹
CC(C)(C)C(=O)CSc1ncc2c(n1)-c1cc(Cl)ccc1CC2 | Dual specificity protein phosphatase 10, catalytic domain (Homo sapiens, UniProt Q9Y6W6) | X-ray co-crystal structure | – | concentration not given | – | active site volume | 53.1 ± 1.9 Å³
CC1(C)C(C=C(Cl)Cl)C1C(=O)OCc1cccc(Oc2ccccc2)c1 (stereo not drawn) | uncharacterized protein (Anopheles coluzzii, UniProt A0A6E8VQK1) | enzyme activity, inhibitor | Sf9 cell homogenate | 186 µM, 0.1667 h, added: α-naphthyl acetate substrate | relative to: no inhibitor | remaining activity | 3.3%
Nc1ncc(-c2nc(N3CCOCC3)nc(N3CCOCC3)n2)c(C(F)F)n1 | ALK (Homo sapiens, UniProt Q9UM73, C1156Y) | KINOMEscan | – | 10 µM | – | remaining binding | 32%
O=C(Nc1nncs1)C(F)(F)Cl | MAPK8 (Homo sapiens, UniProt P45983) | binding, isothermal titration calorimetry | – | – | – | ligand efficiency | 0.44
COc1cc(O)cc(/C=C/c2ccc(O)cc2)c1 | O-methyltransferase (Sorghum bicolor, UniProt A0A1B6PFV1) | isothermal titration calorimetry | – | concentration not given, apo protein | – | binding stoichiometry | 0.95 ± 0.01 sites
O=C(O)Cc1c[nH]cn1 | SLC6A6 (Homo sapiens, UniProt P31641, Y138A) | binding, microscale thermophoresis | – | 40.3 nM, fitted curve | higher = more binding | fraction bound | 0.000233
COc1ccc(N2C(=O)N(c3c(C)cccc3Cl)Cc3cnc(Nc4ccc(C5CCN(C)CC5)cc4OC)nc32)nc1 | NTRK1 (Homo sapiens, UniProt P04629) | kinase activity, inhibitor | – | 0.5 µM, kinase TRKA | – | inhibition | 6%
C[C@H]1CN(c2n[nH]c3nc(N[C@H]4CC[C@H](NS(=O)(=O)CCC(F)(F)F)CC4)ncc23)CCO1 | 14-3-3 protein epsilon (Homo sapiens, UniProt P62258) | Kinobeads competition, measured: YWHAE | – | 20 µM, unit not given | relative to: vehicle | remaining binding | 1.13
CN(C(=O)n1cnc(-c2ccc[n+]([O-])c2)c1)C1CCCCC1 | Monoacylglycerol lipase ABHD6 (Abhd6, Rattus norvegicus, UniProt Q5XI64) | enzyme activity, ABPP | rat, brain | oral, 10 mg/kg/day, 28 days | relative to: vehicle | fold change | -5.9
O=C(Nc1cccnn1)N1CCC(=Cc2cccc(Oc3ccc(C(F)(F)F)cn3)c2)CC1 | GRM5 (Homo sapiens, UniProt P41594) | radioligand binding | – | 50 µM, added: [3H]quisqualic acid | – | inhibition of binding | 6%
CCCOC/C(=N\c1ccc(Cl)cc1C(F)(F)F)n1ccnc1 | Thyroxine 5-deiodinase (DIO3, Homo sapiens, UniProt P55073, C168G) | inhibitor | – | C168G variant | – | Hill slope | -0.744
O=c1c2ccccc2oc2cc(OCCCCc3ccccc3)ccc12 | ache (Electrophorus electricus, UniProt O42275) | enzyme activity, inhibitor, Lineweaver-Burk plot | – | 2.91 µM | higher = faster reaction | Vmax | 0.0038 a.u.

SMILES | target | assay | system | setting | scale | measurement | result
Nc1ncnc2c1ncn2[C@@H]1O[C@H](COP(=O)(O)O)[C@@H](O)[C@H]1O | Thermonuclease (nuc, Staphylococcus aureus, UniProt P00644) | folding kinetics | – | unit not given | relative to: prAp | phi value | 0.4 ± 0.08
[2H]c1c([2H])c([C@]2([2H])CCCN2C(=O)C(C)(C)Oc2ccc3cn[nH]c3c2)c([2H])c([2H])c1C([2H])([2H])[2H] | PIP5K1C (Homo sapiens, UniProt O60331) | KINOMEscan | – | 1 µM | relative to: DMSO control | remaining binding | 91%
COc1cc2c(NC3CCN(C)CC3)cc(-c3ccc(C)o3)nc2cc1OCCCN1CCCC1 | DNMT1 (Homo sapiens, UniProt P26358) | enzyme activity | – | 3703.70 nM | – | inhibition | 51%
CCCCCCCCCC(=O)CC(=O)N[C@H]1CCOC1=O | qscR (Pseudomonas aeruginosa, UniProt G3XD77) | protein-ligand complex stability, differential scanning fluorimetry | – | – | – | melting temperature | 46.3 °C
COc1cc(N)c(Cl)cc1C(=O)NC1CN2CCC1CC2 (stereo not drawn) | PRLHR (Homo sapiens, UniProt P49683) | receptor activation, TANGO luminescence | – | concentration not given, unconfirmed screen | relative to: vehicle control | log2 fold change | 0.181
O=C(c1ccc(Cl)cc1)N1CCN2C(=O)N(OC(=O)N3CCOc4ccccc43)C(=O)C2C1 (stereo not drawn) | PPT2 (Homo sapiens, UniProt Q9UMR5) | enzyme activity, inhibitor, MS-based ABPP | SW-620 in situ | 10 µM, 2 h, 37 °C | relative to: compound over DMSO, lower = stronger inhibition | median ratio | 1.08
O=C[C@H](O)COP(=O)(O)O | TPI1 (Saccharomyces cerevisiae, UniProt P00942, Y208F) | substrate, GPDH/NADH-coupled | – | pH 5.7, 25 °C | – | kcat | ~21 s⁻¹
CC(C)(C)C(=O)C1C(=O)c2ccccc2C1=O | NR1H3 (Homo sapiens, UniProt Q13133) | – | – | concentration not given | – | activity | inactive
c1cc(N2CCNCC2)c2cc[nH]c2c1 | CHRM2 (Homo sapiens, UniProt P08172) | ERK1/2 phosphorylation, agonist | CHO cells | – | – | Emax | < 10%
CN[C@@H]1C[C@H]2O[C@@](C)([C@@H]1OC)n1c3ccccc3c3c4c(c5c6ccccc6n2c5c31)C(=O)NC4 | CDC2-like kinase 1 (Trypanosoma brucei brucei, UniProt Q382U0) | kinase activity, ADP-Glo | – | 0.1562 µM | – | remaining activity | 42.6%
CC[C@H](C)[C@@H]1NC(=O)[C@H](Cc2c[nH]c3ccccc23)NC(=O)[C@H](Cc2ccc(O)cc2)NC(=O)CSC[C@@H](C(N)=O)NC(=O)[C@H]([C@@H](C)O)NC(=O)[C@H](CO)NC(=O)[C@H](C(C)C)NC(=O)[C@H](Cc2ccc(O)cc2)NC(=O)[C@H](CCCNC(=N)N)NC(=O)[C@H](Cc2ccc(O)cc2)NC(=O)[C@H]([C@@H](C)O)NC(=O)[C@H]([C@@H](C)O)NC(=O)[C@H](Cc2c[nH]c3ccccc23)NC(=O)[C@H](CO)NC(=O)[C@H](CC(N)=O)NC(=O)[C@H](CO)NC1=O | Vacuolar protein sorting-associated protein 26A/Vacuolar protein sorting-associated protein 35, Vps35 residues 1–172 (Homo sapiens, UniProt O75436+Q96QK1) | ITC | – | 25 °C | – | ΔG | -8.8 ± 0.1 kcal/mol
CN(C(=O)n1cnc(-c2ccc[n+]([O-])c2)c1)C1CCCCC1 | AVPR1B (Homo sapiens, UniProt P47901) | radioligand binding | – | 10 µM, added: [3H]arginine vasopressin | – | inhibition | -1%
CCN1CCN(C(=O)N[C@@H](C(=O)N[C@@H]2C(=O)N3[C@@H]2SC(C)(C)[C@@H]3C(=O)O)c2ccccc2)C(=O)C1=O | Penicillin-binding protein 2X (Streptococcus pneumoniae R6, UniProt P59676) | inhibitor | Streptococcus pneumoniae | – | – | kinact/KI | 140000 ± 48000 M⁻¹ s⁻¹
CCCC(NCCc1cc(OC)c(C#N)cc1OC)c1ccccc1O.Cl (stereo not drawn) | HTR2C (Homo sapiens, UniProt P28335) | Gq dissociation, agonist, BRET | – | 10 µM | relative to: 5-HT | activity | ~44%
O=C(CCCOc1ccc(Cl)cc1)NC1CCOC1=O (stereo not drawn) | qscR, DNA-bound (Pseudomonas aeruginosa, UniProt G3XD77) | DNA binding, ligand, EMSA | – | saturating ligand | – | Hill slope | 1.9
Cc1ncsc1-c1ccc(CNC(=O)[C@@H]2C[C@@H](O)CN2C(=O)[C@@H](NC(=O)COCCOCCOCCNC(=O)C[C@@H]2N=C(c3ccc(Cl)cc3)c3c(sc(C)c3C)-n3c(C)nnc32)C(C)(C)C)cc1 | VHL-ElonginB-ElonginC complex human | ternary complex formation, fluorescence polarization | – | added: SMARCA4 bromodomain | – | cooperativity factor | 1.7
